Published values collected from several papers.
A part holds a random share of what one study measured. Changes are numbered by the printed parent chain.
Chain of UniProt P16591 (whole entry, looked up): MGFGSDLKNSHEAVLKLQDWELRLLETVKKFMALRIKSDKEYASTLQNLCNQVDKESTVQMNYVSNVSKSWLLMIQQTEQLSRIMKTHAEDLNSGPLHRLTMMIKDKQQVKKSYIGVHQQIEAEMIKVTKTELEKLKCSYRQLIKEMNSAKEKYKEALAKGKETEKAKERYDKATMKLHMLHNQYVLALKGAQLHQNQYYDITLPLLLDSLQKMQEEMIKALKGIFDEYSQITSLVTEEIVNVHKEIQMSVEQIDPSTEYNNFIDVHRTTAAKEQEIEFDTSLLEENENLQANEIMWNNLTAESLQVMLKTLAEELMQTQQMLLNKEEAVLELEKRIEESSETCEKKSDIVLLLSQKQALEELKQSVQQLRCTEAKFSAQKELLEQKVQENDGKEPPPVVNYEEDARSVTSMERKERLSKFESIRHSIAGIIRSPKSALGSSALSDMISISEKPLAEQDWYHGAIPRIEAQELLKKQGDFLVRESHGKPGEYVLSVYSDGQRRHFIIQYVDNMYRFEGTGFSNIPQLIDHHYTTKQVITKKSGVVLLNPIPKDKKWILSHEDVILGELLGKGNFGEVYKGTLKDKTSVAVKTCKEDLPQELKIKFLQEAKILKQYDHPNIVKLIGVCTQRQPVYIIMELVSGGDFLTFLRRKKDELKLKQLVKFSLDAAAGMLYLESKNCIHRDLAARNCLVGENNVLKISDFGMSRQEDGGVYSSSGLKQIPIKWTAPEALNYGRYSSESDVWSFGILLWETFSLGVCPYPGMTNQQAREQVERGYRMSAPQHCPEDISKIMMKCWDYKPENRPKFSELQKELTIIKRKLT

Sample 1 — technique: DHFR PCA, deep sequencing; matrix: yeast; together with: (+)-ABA 58 µM; baseline: wild-type fitted maximum; reading: higher = stronger binding; endpoint: relative binding score
Target: ABI1, truncated, D143A, DHFR fusion (Arabidopsis thaliana)
Notes: methotrexate growth selection, single substitutions
Starting sequence: PYL1, truncated, DHFR fusion (Arabidopsis thaliana); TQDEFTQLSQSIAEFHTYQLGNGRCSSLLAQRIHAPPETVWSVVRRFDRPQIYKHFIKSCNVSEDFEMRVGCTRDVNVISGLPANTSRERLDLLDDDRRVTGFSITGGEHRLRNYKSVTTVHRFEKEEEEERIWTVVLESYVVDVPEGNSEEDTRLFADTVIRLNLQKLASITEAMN; partner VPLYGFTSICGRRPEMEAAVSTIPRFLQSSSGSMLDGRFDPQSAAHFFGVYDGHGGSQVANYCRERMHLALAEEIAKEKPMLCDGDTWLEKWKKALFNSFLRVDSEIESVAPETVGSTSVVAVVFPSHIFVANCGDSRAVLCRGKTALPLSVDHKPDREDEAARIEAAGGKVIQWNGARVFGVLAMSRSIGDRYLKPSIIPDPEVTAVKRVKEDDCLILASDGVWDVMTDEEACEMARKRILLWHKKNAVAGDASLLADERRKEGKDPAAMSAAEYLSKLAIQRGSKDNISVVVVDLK
I162G: 2.98%
V142C: 82.8%
F47S: -9.49%
I162F: 0.997%
D97I: 90.9%
G81K: 27.9%
C25P: 8.99%
I33R: 0.76%

Sample 2 — target: CRIPT, C-terminal peptide; technique: DHFR complementation, deep sequencing; matrix: yeast; baseline: wild type; reading: higher = weaker binding; endpoint: binding free energy change
Notes: single substitutions, model-inferred values
Starting sequence: ERBIN, PDZ domain 1 (human); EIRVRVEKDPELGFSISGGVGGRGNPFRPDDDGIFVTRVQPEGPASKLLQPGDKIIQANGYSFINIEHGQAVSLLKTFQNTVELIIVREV; partner TKNYKQTSV
E83S: 0.554 kJ/mol
Y61R: -0.0544 kJ/mol
P41K: 1.05 kJ/mol
N80H: 0.192 kJ/mol
Q50A: -0.192 kJ/mol
F14N: 5.21 kJ/mol
L49N: 3.4 kJ/mol
R38T: -1.19 kJ/mol

Sample 3 — technique: protein binding microarray; form: double-stranded DNA, one strand shown; matrix: in vitro; tested at: not given; baseline: not given; reading: higher = stronger binding; endpoint: E-score
Target: Histone acetyltransferase KAT6A, both winged helices, GST fusion (KAT6A, Homo sapiens, UniProt Q92794, residues 1-181)
Notes: 8-mer, flanks averaged, mean of 2 arrays, mostly near background
Construct (chain): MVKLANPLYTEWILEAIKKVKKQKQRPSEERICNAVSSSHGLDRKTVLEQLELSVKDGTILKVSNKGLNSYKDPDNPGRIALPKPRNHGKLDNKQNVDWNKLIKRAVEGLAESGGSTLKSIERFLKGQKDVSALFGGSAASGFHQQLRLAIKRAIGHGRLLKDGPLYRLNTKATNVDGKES
AGTCGTAA: -0.124
CGACGCAC: 0.192
CTAGATTC: -0.216
AACACAAT: -0.164
GCATTAGC: 0.0564
ATGATGTC: -0.00807
AGCGCTAA: 0.338
CTGCGCGC: 0.375

Single results of other studies
Cc1cn(-c2cc(NC(=O)c3ccc(C)c(Nc4nccc(-c5cccnc5)n4)c3)cc(C(F)(F)F)c2)cn1  remaining activity (Tyrosine-protein kinase Fer (FER, Homo sapiens, UniProt P16591); enzyme activity, inhibitor; 0.5 µM; baseline: control): 93.6%

Some of these lines once more (sample 2):
L49N: 3.4 kJ/mol
Y61R: -0.0544 kJ/mol
R38T: -1.19 kJ/mol
